Measured values collected from several papers.
Compare with care: the assays were run in different laboratories. ± marks the error that the study gave.
IDE: Insulin-degrading enzyme (IDE, Homo sapiens, UniProt P14735)

CC[C@H](C)CCCCC(=O)N[C@@H](CCN)C(=O)N[C@H](C(=O)N[C@@H](CCN)C(=O)N[C@H]1CCNC(=O)[C@H]([C@@H](C)O)NC(=O)[C@H](CCN)NC(=O)[C@H](CCN)NC(=O)[C@H](CC(C)C)NC(=O)[C@@H](Cc2ccccc2)NC(=O)[C@H](CCN)NC1=O)[C@@H](C)O
adverse event incidence (measured: infections and infestations; all subjects; intravenous, 0.75 mg/kg): 4.55%

CCS(=N)c1ccc(C(F)(F)F)cc1 (stereo not shown)
metabolic stability (human liver microsomes; baseline: hepatic blood flow): < 23%

Cc1ccc([C@@H]2O[C@H](CO)[C@@H](O)[C@H](O)[C@H]2O)cc1Cc1ccc(-c2ccc(F)cc2)s1
urinary chloride excretion change (Japanese type 2 diabetes patients; 100 mg, day 18, 24 h urine collection; baseline: baseline): -52.7 mEq

C[C@@H]1CN(CC(=O)N2CC(C)(C)c3nc(CO)c(Cc4ccc(F)cc4)cc32)[C@@H](CN2CCOC[C@H]2C)CN1
unchanged drug excreted (male Sprague Dawley rats, bile duct cannulated, urine and bile; intravenous, 5 mg/kg, 24 h; baseline: dose): ~40%

O=C(Nc1c2c(cc3c1CCC3)CCC2)NS(=O)(=O)/C=C/c1nccs1
metabolized fraction (human liver microsomes; 1 µM, 30 min, with: NADPH): 23.8%

COc1ccc2nc(-c3cc(N(C)C)ccn3)c(N(C)c3ccc(F)cc3)n2c1
CC50 (peritoneal macrophages, Swiss mice; 5 days, 5% fetal calf serum): 3.98 µM

COc1cc(C(=O)N2CCC3(CC2)CC(=O)c2c(cnn2C(C)C)C3)cc(-c2ccc(C(=O)O)cc2)n1
placebo-adjusted change from baseline (measured: total cholesterol; human, fasting serum; 30 mg every 12 h, day 13, adjusted geometric mean; baseline: baseline and placebo): -2%

COc1cc2c(cc1OC)C(=O)C(CC1CCN(Cc3ccccc3)CC1)C2 (stereo not shown)
LSEQ getting to sleep (human subjects; unit not given; baseline: placebo): -0.02

CNCc1ccc(-c2[nH]c3cc(F)cc4c3c2CCNC4=O)cc1
malignant neoplasm progression incidence (human patients; oral, 600 mg twice daily, grade 1): 0%

CCCCCN(C)CCC(O)(P(=O)(O)O)P(=O)(O)OP(=O)(O)OC[C@H]1O[C@@H](n2ccc(N)nc2=O)C(F)(F)[C@@H]1O (stereo partly shown)
hydrolysis rate constant (HEPES buffer; pH 6.2, 37 °C): 0.109 h⁻¹

Nc1ccn([C@@H]2O[C@H](CO)[C@@H](O)C2(F)F)c(=O)n1
viability (HBL-1; 1 µM, 120 h): 8.92%

Cc1cccc(CNC(=O)c2cn(CCNC(=O)c3ccccc3Sc3c([N+](=O)[O-])ncn3C)c3cc4c(cc3c2=O)OC(F)(F)O4)n1
AUC(0-t) (Sprague-Dawley rat, male, plasma; intravenous, 5 mg/kg of parent compound): 325 ± 8.26 ng·h/mL

CCCCOC(=O)N1CCN(C(=O)[C@H](CP(=O)(O)O)NC(=O)c2cc(N3CC[C@H](OC)C3)nc(-c3ccccc3)n2)CC1
change in QT interval (human; subcutaneous, 8 mg, 24 h post-dose; baseline: baseline): -3.7 ± 24.2 ms

Cc1ccccc1-c1ccc([C@H]2[C@@H]3CN(Cc4ccncc4)C[C@H]2N3)cc1
EC50 (IDE; enzyme activity, inhibitor, fluorogenic kinetic; with: Mca-RPPGFSAFK(Dnp)-OH substrate): 2.2 µM

COc1ccnc(C(=O)NCC(=O)O)c1O
DT50 (aerobic dark soil incubation; sandy loam soil; 20 °C, persistence endpoint): 21.6 days

Cc1cc(Nc2nn(-c3ccccc3)c(=O)c3ccccc23)n[nH]1
viability (HBL-1; 0.1 µM, 120 h): 128%

CCN1/C(=C/C(C)=O)Sc2ccc(F)cc21
QT interval (cynomolgus monkey; oral, 10 mg/kg, 4 h post-dose): 267 ± 33 ms

Cc1cc(NC2CCN(C(=O)OC3CCN(C(=O)/C=C/CN(C)C)C3)CC2)n2ncc(C(C)C)c2n1 (stereo not shown)
patients with adverse event (Phase I dose escalation CTCAE v4.0, measured: Dyspepsia; patients with advanced solid tumours; dose not given, all dose schedules any grade): 6%

Cc1cc(C)c(CNC(=O)c2cc(Cl)c3c(c2C)O[C@@](C)([C@H]2CC[C@H](N(C)C)CC2)O3)c(=O)[nH]1
grade ≥3 adverse event Sepsis (relapsed/refractory NHL patients; oral, 200 mg once daily, onset after cycle 1 day 1): 4.2%

Nc1ncnc2c1ncn2[C@H]1C[C@@H]2OP(=O)(O)OC[C@H]3O[C@@H](n4cnc5c(N)ncnc54)C[C@@H]3OP(=O)(O)OC[C@H]2O1
eosinophil percentage (non-tumor-bearing mice, blood; intravenous, 1 mg/kg, toxicity study): 6.58 ± 3.12%

CNC(=O)c1ccc(-c2cnc3ncc(Cc4ccc5ncccc5c4)n3n2)cc1F
γGT increased dose reduction/interruption (Japanese patients; oral, 400 mg, any grade): 1%

Cc1ccccc1-c1ccc([C@H]2[C@H](CO)N3C(=O)CN(C(=O)Nc4cccc(F)c4)C[C@@H]23)cc1
EC50 (IDE; enzyme activity, inhibitor, fluorogenic kinetic; with: Mca-RPPGFSAFK(Dnp)-OH substrate): 4 µM

Some of these lines once more:
COc1cc2c(cc1OC)C(=O)C(CC1CCN(Cc3ccccc3)CC1)C2 (stereo not shown)
LSEQ getting to sleep (human subjects; unit not given; baseline: placebo): -0.02

Cc1cc(Nc2nn(-c3ccccc3)c(=O)c3ccccc23)n[nH]1
viability (HBL-1; 0.1 µM, 120 h): 128%

CNC(=O)c1ccc(-c2cnc3ncc(Cc4ccc5ncccc5c4)n3n2)cc1F
γGT increased dose reduction/interruption (Japanese patients; oral, 400 mg, any grade): 1%
